# Measured values pooled from the literature.
# Protocols differ between the studies behind these lines. Several values in a cell are separate wells, animals, samples, runs or records. ± gives the spread as reported.
# TDO2: Tryptophan 2,3-dioxygenase (TDO2, Homo sapiens, UniProt P48775)
# MEP cytidylyltransferase IspD: MEP cytidylyltransferase IspD (Plasmodium falciparum, UniProt Q8I273)
# Gja8: Gap junction alpha-8 protein (Gja8, Mus musculus, UniProt P28236)
# FGFR1: Fibroblast growth factor receptor 1 (FGFR1, Homo sapiens, UniProt P11362)
# DDR1: Epithelial discoidin domain-containing receptor 1 (DDR1, Homo sapiens, UniProt Q08345)
# PDE5A: cGMP-specific 3',5'-cyclic phosphodiesterase (PDE5A, Homo sapiens, UniProt O76074)
Compound,target,test,test system,conditions,IC50
Cc1ccc(-c2nc(Nc3nc4ccccc4o3)ncc2C#N)cc1,"Metabotropic glutamate receptor 5 (Grm5, Rattus norvegicus, UniProt P31424)","calcium signal, antagonist",,,0.09 µM
CC(C)c1cc2ccc3ccccc3c2oc1=O,"Tyrosine-protein kinase SYK (SYK, Homo sapiens, UniProt P43405)","enzyme activity, inhibitor, ADP detection",,,> 100 µM
CCCN(CC(=O)N(CCC)CC(=O)N(CCC)CC(=O)N(CCC)CC(=O)N(CC(=O)N(CCC)CC(=O)N(CCC)CC(=O)N(CCC)CC(=O)N(CCC)CC(=O)N(CC(=O)N(CCC)CC(=O)N(CCC)CC(=O)N(CCC)CC(=O)N(CCC)CC(=O)N(CC(N)=O)Cc1cn(CCCNC(=O)CCCOc2cccc(-c3nc4ccc(-c5nc6ccc(N7CCN(C)CC7)cc6[nH]5)cc4[nH]3)c2)nn1)Cc1cn(CCCNC(=O)CCCOc2cccc(-c3nc4ccc(-c5nc6ccc(N7CCN(C)CC7)cc6[nH]5)cc4[nH]3)c2)nn1)Cc1cn(CCCNC(=O)CCCOc2cccc(-c3nc4ccc(-c5nc6ccc(N7CCN(C)CC7)cc6[nH]5)cc4[nH]3)c2)nn1)C(=O)CNCc1cn(CCCNC(=O)CCCOc2cccc(-c3nc4ccc(-c5nc6ccc(N7CCN(C)CC7)cc6[nH]5)cc4[nH]3)c2)nn1,MBNL1–r(CUG)109 complex,MBNL1 displacement,,with: bulk yeast tRNA competitor,0.39 ± 0.11 µM
COC1=Cc2c(cc(O)c3cc(C)c(OC)cc23)C(C)(C)C1=O,TDO2,"enzyme activity, inhibitor",,,91.1 µM
COc1ccc([C@H]2N[C@H](C(=O)O)Cc3c2[nH]c2ccccc32)c(OC)c1,MEP cytidylyltransferase IspD,"enzyme activity, inhibitor, fluorimetric pyrophosphate",,60 nM enzyme,> 5 µM
O=c1c(OCc2ccccc2)c(-c2cccc([N+](=O)[O-])c2)oc2ccccc12,β-glucosidase,"enzyme activity, inhibitor",,,0.3 ± 0.11 µM
CCCC(CCC)C(=O)NO,HDAC (Lucilia cuprina egg nuclear extract),"enzyme activity, inhibitor, fluorometric",,,> 100 µM
NC(=O)NC(c1ccccc1)(c1ccccc1)c1ccccc1,Gja8,"gap junction channel current, inhibitor, dual whole-cell voltage clamp",N2a transfected with Cx50,,no effect
COc1cc2nccc(Oc3ccc(NC(=S)NCCCSC)c(Cl)c3)c2cc1C(N)=O,FGFR1,,,,0.766 µM
O=C(CS(=O)(=O)Cc1ccco1)C12CC3CC(CC(C3)C1)C2,"11-beta-hydroxysteroid dehydrogenase 1 (HSD11B1, Homo sapiens, UniProt P28845)","enzyme activity in cells, inhibitor",,,0.036 µM and < 0.05 µM
Cc1cccc(/N=c2\oc3ccccc3cc2-c2ccccc2)c1,"Prostaglandin G/H synthase 2 (PTGS2, Homo sapiens, UniProt P35354)","enzyme activity, inhibitor",,,0.0102 µM
C=C(C)C(=O)Nc1ccc(-c2c(C#Cc3cc(OC)cc(OC)c3)c3c(N)ncnc3n2C)cc1,FGFR1,Caliper mobility shift,,"30 min preincubation, with: 100 µM ATP",0.063 µM
COc1c(O)cc(-c2cc(=O)c3c(O)cc(O)cc3o2)cc1O,"iunh (Leishmania donovani, UniProt Q8WQX2)","enzyme activity, inhibitor, absorbance",,,1.06 µM and 1.1 µM
O=C(C[C@H](Cc1ccc(O)cc1)n1nncc1CNS(=O)(=O)c1ccc(-c2ccccc2)s1)NO,"Endoplasmic reticulum aminopeptidase 2 (ERAP2, Homo sapiens, UniProt Q6P179)","enzyme activity, inhibitor, fluorescence",,,0.85 µM
Cc1cnc(-c2cc(=O)n3nc(N[C@@H](CC4CCC(F)(F)C4)C(=O)Nc4ccc(C(F)F)cc4)sc3n2)o1 (stereo partly shown),"Protein phosphatase 1D (PPM1D, Homo sapiens, UniProt O15297)","enzyme activity, inhibitor, mass spectrometry",,,0.0051 µM
CC[C@H](C)[C@H](NC(=O)[C@H](CCSC)NC(=O)[C@H](Cc1ccc(O)cc1)NC(=O)[C@H](CO)NC(=O)[C@H](CC(=O)O)NC(=O)[C@@H](NC(=O)[C@H](CC(=O)O)NC(=O)[C@H](CC(=O)O)NC(=O)[C@H](CC(N)=O)NC(=O)[C@H](C)NC(=O)[C@H](Cc1ccccc1)NC(=O)[C@H](CC(=O)O)NC(C)=O)[C@@H](C)CC)C(=O)N[C@@H](C)C(=O)N[C@@H](CCSC)C(=O)N[C@@H](CCC(=O)O)C(N)=O,"Replication protein A 70 kDa DNA-binding subunit, N-terminal domain (RPA1, Homo sapiens, UniProt P27694)","binding, fluorescence polarization",,"1 h, with: FITC-ATRIP",102 ± 13.6 µM
O=C(Nc1cccc(COc2cccnc2)c1)Nc1ccc(Cl)c(Cl)c1,DDR1,"enzyme activity, inhibitor, mobility shift",,,0.171 µM
CN1Cc2c(Cl)cc(Cl)cc2C(c2cccc(S(=O)(=O)NCCOCCNC(=O)C(O)C(O)C(=O)NCCOCCNS(=O)(=O)c3cccc(C4CN(C)Cc5c(Cl)cc(Cl)cc54)c3)c2)C1 (stereo not shown),"Sodium/hydrogen exchanger 3 (Rattus norvegicus, UniProt P26433)","intracellular pH recovery, inhibitor, pH-sensitive dye","opossum kidney cells, transfected",,1.58 µM
C[C@H](O)C[C@@H](O)[C@H](O)C(=O)CO,"3-dehydroquinate synthase, chloroplastic (DHQS, Arabidopsis thaliana, UniProt Q8VYV7)","enzyme activity, inhibitor, malachite green phosphate release",,,118 µM
Oc1c(C(Nc2nccs2)c2ccccc2OCc2ccccc2)ccc2cccnc12 (stereo not shown),"Genome polyprotein, NS2B-NS3 protease (GP1, West Nile virus, UniProt Q9Q6P4)","enzyme activity, inhibitor",,"0.1% CHAPS, with: tetrapeptide substrate",6.95 ± 0.12 µM
O=C(O)[C@@H]1Cc2c([nH]c3ccccc23)[C@@H](c2ccc(F)cc2F)N1,MEP cytidylyltransferase IspD,"enzyme activity, inhibitor, fluorimetric pyrophosphate",,60 nM enzyme,0.23 ± 0.01 µM
COc1cc2nccc(Oc3ccc(NC(=S)NCc4ccccc4)c(Cl)c3)c2cc1C(N)=O,FGFR1,,,,4.9 µM
Cc1ccc(CNC(=O)[C@H](CCc2ccccc2)NC(=O)[C@H](CCc2ccccc2)NC(=O)Cc2cccc(Oc3ccccc3)c2)cc1,"Proteasome subunit beta type-10 / Proteasome subunit beta type-3 (Homo sapiens, UniProt P40306+P49720)",inhibitor,,,> 100 µM
CN(C)C(=O)C1CN1S(=O)(=O)c1ccc(C(C)(C)C)cc1 (stereo not shown),"Protein disulfide-isomerase (P4HB, Homo sapiens, UniProt P07237)","enzyme activity, inhibitor, absorbance",,pH 7.6,26.8 µM
CN(C)CCCNC(=O)c1cccc(Br)c1,"Lethal(3)malignant brain tumor-like protein 3 (Homo sapiens, UniProt Q96JM7)","methyl-lysine reader binding, inhibitor, AlphaScreen",,,> 100 µM
Cc1ccc(C(=O)Nc2cccc(C(F)(F)F)c2)cc1-c1ccc2c(-c3cnn(C4CC4)c3)n[nH]c2c1,DDR1,"enzyme activity, inhibitor, ELISA",,,0.0141 µM
Cc1cc(O)n(Cc2ccccc2)n1,TDO2,inhibitor,,with: L-tryptophan 400 µM,268 µM
CC(C)c1ccc(C(=O)Nc2ccc(CN)cc2)c(O)c1,"Transmembrane protease serine 11D (TMPRSS11D, Homo sapiens, UniProt O60235)","enzyme activity, inhibitor",,"15 min preincubation, with: Boc-VPR-AMC 100 µM",11.6 ± 0.6 µM
O=C(NCCN1CCC(Cc2ccccc2)CC1)c1ccc2cc(Br)ccc2c1,"Sodium-dependent serotonin transporter (SLC6A4, Homo sapiens, UniProt P31645)",transporter uptake,,,0.48 to 0.83 µM
CC(/C=C/C(=O)NO)=C\[C@@H](C)C(=O)c1ccc(N(C)C)cc1,"Tyrosine-protein phosphatase non-receptor type 12 (PTPN12, Homo sapiens, UniProt Q05209)","enzyme activity, inhibitor, fluorescence",,,> 100 µM
NNC(=S)Nc1cccc([N+](=O)[O-])c1,"Urea transporter 1 (Slc14a1, Rattus norvegicus, UniProt P97689)","urea transport, inhibitor",rat erythrocytes,15 min,3400 ± 800 µM
Cc1noc(NS(=O)(=O)c2ccc(NC(=O)c3cc(-c4cccc(Cl)c4)nc4ccccc34)cc2)c1C,"Peptidyl-prolyl cis-trans isomerase A (PPIA, Homo sapiens, UniProt P62937)","enzyme activity, inhibitor",,,4.88 µM
O=c1[nH]c(=O)c2ncn(CCOCP(=O)(O)OP(=O)(O)OP(=O)(O)O)c2[nH]1,"DNA polymerase catalytic subunit (Human cytomegalovirus, UniProt P08546)","DNA polymerase activity, inhibitor",,"with: [3H]dTTP, calf thymus DNA",> 100 µM
COc1ccc2c3c(c(Cc4ccc(Cl)cc4)[nH]c13)CCNC2=O,PDE5A,"enzyme activity, inhibitor",,,0.055 µM
O=C1Nc2ccc(OCC3CCNCC3)cc2C(=O)N(Cc2ccc(-c3ccccc3)cc2)[C@@H]1CC1CCCCC1,"E3 ubiquitin-protein ligase synoviolin (SYVN1, Homo sapiens, UniProt Q86TM6)","enzyme activity, inhibitor, radiometric",,,20 µM
CC(C)S(=O)(=O)c1ccc(S(=O)(=O)C(C)C)c(O)c(=O)c1O,"Protein P, RNase H domain (P, Hepatitis B virus genotype D subtype ayw, UniProt P03156)","RNase H activity, inhibitor",Hepatitis B virus,,254 ± 26 µM
COc1cc2nccc(Oc3ccc(NC(=S)Nc4ccc(F)cc4)c(Cl)c3)c2cc1C(N)=O,FGFR1,,,,0.907 µM
OC(c1ccccc1)(c1ccccc1)c1ccccc1Cl,Gja8,"gap junction current, inhibitor, dual whole-cell voltage clamp",transfected mouse N2a cell pairs,,2 µM
Cc1cc(C)n2c1C=C1C=CC(CCC(=O)N3CCN(CCCOc4ccc5nccc(C(=O)NCC(=O)N6CC(F)(F)C[C@H]6C#N)c5c4)CC3)=[N+]1[B-]2(F)F,"Prolyl endopeptidase FAP (Fap, Mus musculus, UniProt P97321)","enzyme activity, inhibitor, fluorescence",,,0.00262 µM
CCC1(CC)C[C@@H](NC(=O)Nc2cccc3c(C)nccc23)c2cc(F)ccc2O1,"Transient receptor potential cation channel subfamily V member 1 (Trpv1, Rattus norvegicus, UniProt O35433)","calcium signal, fluorescence",,pH 5,> 37.5 µM
Cc1ccc(CNC(=O)[C@H](CCc2ccccc2)NC(=O)[C@@H](N)CCc2ccccc2)cc1,"20S proteasome (Plasmodium falciparum, UniProt A0A5K1K7U1+Q8IJT1)","β5 activity, inhibitor",,"with: Suc-LLVY-AMC, PA28α-activated",0.311 µM
COc1cc2nccc(Oc3ccc(NC(=S)NCCCO)c(Cl)c3)c2cc1C(N)=O,FGFR1,,,,1.22 µM
COCCCCN1CCc2c(Cc3ccc(Cl)cc3)[nH]c3c(OC)ccc(c23)C1=O,PDE5A,"enzyme activity, inhibitor",,,0.014 µM
Cc1cc([N+](=O)[O-])cn(CC(=O)c2cc3cc(Br)ccc3[nH]2)c1=O,"Replication protein A 70 kDa DNA-binding subunit (RPA1, Homo sapiens, UniProt P27694)","inhibitor, FRET",,,1.12 ± 0.13 µM
CC(C)(O)C(=O)C(=O)Nc1cccc(C(=O)N2CCC(c3cccc(CN)c3)CC2)c1,"Tryptase beta-1 (Homo sapiens, UniProt Q15661)","enzyme activity, inhibitor",,"tryptase 100 pM, with: AMC substrate",0.0207 µM
C[C@@H](O)[C@H](NC(=O)CC(=O)OC[C@H]1O[C@@H](n2cnc3c(N)ncnc32)[C@H](O)[C@@H]1O)C(=O)O,"tsaD/tsaC, with TsaB and TsaE (Escherichia coli, UniProt P05852+P45748)","inhibitor, HPLC",,"pH 7.5, 23 °C, preincubation 1 min, with: ATP 1 mM and L-threonine",> 1000 µM
NS(=O)(=O)c1ccc(/N=N/c2ccc(O)[nH]c2=O)cc1,"Semaphorin-3C, with neuropilin-1 (SEMA3C, Homo sapiens, UniProt Q99985)","SEMA3C binding, inhibitor, displacement",,with: SEMA3C-AP,19.6 µM
COc1cc2nccc(Oc3ccc(NC(=S)N(C)C)c(Cl)c3)c2cc1C(N)=O,FGFR1,,,,0.063 µM
CC1(C)CCC(CN2CCN(c3ccc(C(=O)NS(=O)(=O)c4ccc(NCC5COCCO5)c([N+](=O)[O-])c4)c(N4CCCOc5nc6[nH]ccc6cc54)c3)CC2)=C(c2ccc(Cl)cc2)C1 (stereo not shown),"Bcl-2-like protein 1 (BCL2L1, Homo sapiens, UniProt Q07817)",ligand displacement,,,0.00376 µM

# Some of these lines once more:
Compound,target,test,test system,conditions,IC50
O=C(Nc1cccc(COc2cccnc2)c1)Nc1ccc(Cl)c(Cl)c1,DDR1,"enzyme activity, inhibitor, mobility shift",,,0.171 µM
O=C(NCCN1CCC(Cc2ccccc2)CC1)c1ccc2cc(Br)ccc2c1,"Sodium-dependent serotonin transporter (SLC6A4, Homo sapiens, UniProt P31645)",transporter uptake,,,0.48 to 0.83 µM
CCC1(CC)C[C@@H](NC(=O)Nc2cccc3c(C)nccc23)c2cc(F)ccc2O1,"Transient receptor potential cation channel subfamily V member 1 (Trpv1, Rattus norvegicus, UniProt O35433)","calcium signal, fluorescence",,pH 5,> 37.5 µM
